Results of several laboratories.
Each line is one published result; not all experiments were run side by side.
CDK17: Cyclin-dependent kinase 17 (CDK17, Homo sapiens, UniProt Q00537)
CDK17 with cyclin Y: Cyclin-dependent kinase 17, with cyclin Y (CDK17, Homo sapiens, UniProt Q00537)

SMILES	target	test	test system	conditions	scale	endpoint	value
C=CC(=O)N1CCc2ccc(-n3c(=O)ccc4cnc5ccc(-c6cnn(C)c6)cc5c43)cc21	CDK17	KINOMEscan	–	1 µM	baseline: DMSO control	remaining binding	100%
Nc1ncc(-c2cc(-c3cnn(CC(F)(F)F)c3)ncc2F)nc1C(=O)NC1CNCC(F)C1 (stereo not shown)	CDK17 with cyclin Y	enzyme activity	–	1 µM	baseline: DMSO control	remaining activity	86.1%
CCN1CCN(Cc2ccc(C(=O)Nc3ccc(C)c(NCc4cnc5[nH]ccc5c4OC)c3)cc2C(F)(F)F)CC1	CDK17	binding, competition with immobilised ligand	–	1 µM	–	remaining binding	100%
COc1cc(Nc2nc(C)cc(-c3cnn4nc(OC)ccc34)n2)cc(C(F)(F)F)c1	CDK17	inhibitor	–	1 µM, PCTK2	baseline: control	remaining activity	100%
CCn1cc(C(=O)O)c(=O)c2c(N)c(F)c(NC3CCCCC3)cc21	CDK17 with cyclin Y	kinase activity	–	0.1 µM, together with: ATP at Km	–	inhibition	27.6%
O=C(Cc1ccc(OCc2ccccc2)cc1)NC1(C(=O)O)CCN(C(=O)c2ccc(-c3cccc(Cl)c3)cc2)CC1	CDK17 with cyclin Y	enzyme activity, inhibitor	–	10 µM	–	activity vs control	125%
C=CC(=O)N1CCCC(n2c(=O)c3ncccc3n(Cc3ccc(Oc4ccccc4)cc3)c2=O)C1 (stereo not shown)	CDK17	cell-free assay, competition with immobilised ligand	–	1 µM	–	remaining binding	92%
Cc1cnc2nc1Nc1cccc(c1)COC/C=C/COCc1cc(ccc1OCCN1CCOCC1)N2	CDK17	binding, competition with immobilised ligand	–	0.1 µM	–	remaining binding	100%
Nc1ncc2c(n1)-c1c([nH]c3ccc(C4=CCOCC4)cc13)CCC2	CDK17	binding, competition with immobilised ligand	–	1 µM	–	remaining binding	100%
CN1CCN(Cc2ccc(-c3ccc(CO[C@H]4CCC[C@@H]4NC(=O)c4cc(-c5cnn(C)c5)cnc4N)cc3)cc2)CC1	CDK17 with cyclin Y	enzyme activity, inhibitor	–	0.1 µM	–	inhibition	18%
Cc1ccc(-c2c(/C=C(\C#N)C(=O)NC(C)C)n(CCCO)c3ncnc(N)c23)cc1	CDK17	cell-free assay, competition with immobilised ligand	–	1 µM	–	remaining binding	97%
C=CC(=O)N1Cc2nc(-c3cc(-c4cc(Cl)cnc4Cl)c(F)cc3F)n(-c3ccncn3)c2C1	CDK17 with cyclin Y	cell-free assay, inhibitor	–	1 µM	–	inhibition	2.1%
COc1cc(Nc2nccc(-c3cnn4nc(OC)ccc34)n2)cc(C(F)(F)F)c1	CDK17	binding, competition with immobilised ligand	–	1 µM	–	remaining binding	82%
COc1c(Cl)cccc1Nc1c(-c2ccncc2C#C[C@@]2(C)CCCN2C(=O)/C=C/CN(C)C)[nH]c2c1C(=O)NCC2	CDK17	binding, competition with immobilised ligand	–	3 µM	–	remaining binding	100%
CNC1C[S+]2CC[S+]3CC[S+](C1)[Ru-4]321([N]=C=S)[n]2c3ccc(OC)cc3c3c4c(c5cc(F)c[n+]1c5c32)C(=O)NC4=O (stereo not shown)	CDK17	KinomeScan	–	0.1 µM	baseline: untreated	remaining binding	100%
CS(=O)(=O)Nc1cccc(-c2csc3cnc(Nc4ccc(N5CCN(CCCCCOc6cccc7c6C(=O)N(C6CCC(=O)NC6=O)C7=O)CC5)cc4)nc23)c1 (stereo not shown)	CDK17	probe labelling, inhibitor, KiNativ chemoproteomics	MOLT-4	1 µM	–	inhibition	58.7%
CNC(=O)C1CCN(c2cc(C)c(F)cc2NC(=O)c2ccc(-c3cc(O)ccc3C)c(C)c2)CC1	CDK17	binding, competition with immobilised ligand	–	1 µM	–	remaining binding	98%
CC(C)=CC1OC(C)(C)C2C=C3C(=O)C(Cl)=CC(O)C3C3C(O)C4OC4C(=O)C132 (stereo not shown)	CDK17	cell-free assay, competition with immobilised ligand	–	10 µM	–	remaining binding	79%
CN1C[C@@H](c2c[nH]c3cc(Br)ccc23)NC[C@@H]1c1c[nH]c2cc(Br)ccc12	Cyclin-dependent kinase 17, with p35 (CDK17, Homo sapiens, UniProt Q00537)	enzyme activity, inhibitor	–	10 µM	–	remaining activity	110%

Repeated from above:
SMILES	target	test	test system	conditions	scale	endpoint	value
Cc1cnc2nc1Nc1cccc(c1)COC/C=C/COCc1cc(ccc1OCCN1CCOCC1)N2	CDK17	binding, competition with immobilised ligand	–	0.1 µM	–	remaining binding	100%
Nc1ncc2c(n1)-c1c([nH]c3ccc(C4=CCOCC4)cc13)CCC2	CDK17	binding, competition with immobilised ligand	–	1 µM	–	remaining binding	100%
CN1CCN(Cc2ccc(-c3ccc(CO[C@H]4CCC[C@@H]4NC(=O)c4cc(-c5cnn(C)c5)cnc4N)cc3)cc2)CC1	CDK17 with cyclin Y	enzyme activity, inhibitor	–	0.1 µM	–	inhibition	18%
